Measured values of several laboratories.
Lines come from different studies, so protocols differ. ± gives the spread as reported.

Compound	tested on	assay	test system	setting	scale	quantity	result
CC(=O)N[C@H](CCCCNC(=O)C(C)F)C(=O)N[C@@H](CS)C(=O)N[C@@H](CS)C(=O)N[C@@H](CCC(=O)O)C(=O)N[C@@H](Cc1c[nH]cn1)C(=O)N[C@H](Cc1ccccc1)C(=O)N[C@@H](CCCNC(=N)N)C(=O)N[C@@H](Cc1c[nH]c2ccccc12)C(=O)N[C@@H](CS)C(=O)N[C@@H](CCCNC(=N)N)C(=O)N1CCC[C@H]1C(=O)N[C@H](C(N)=O)C(C)C (stereo partly shown) [fluorine-18 labelled]			Foxn1 nude mouse A375M xenograft, tumour	intravenous, 2 h		tissue uptake	0.84 ± 0.39 %ID/g
C[C@@H]1CCO[C@H]2Cn3cc(C(=O)NCc4ccc(F)cc4F)c(=O)c(O)c3C(=O)N12	hCMEC/D3			5 µM, 1 h		intracellular concentration	14.2 ± 0.62 ng/mL
CCCC(CCC)C(=O)Nc1ccccc1O	Artemia franciscana		larvae, artificial seawater	0.10 mM, 48 h, 0.17% DMSO	relative to: DMSO control	mortality	7.76 ± 4.67%
[123I]c1cncc(OC[C@@H]2CCN2)c1		SPECT	human, thalamus	intravenous bolus, 9.3 mCi	relative to: plasma	tissue/plasma ratio	23.2
CSCC[C@@H]1NC(=O)[C@H](CC(=O)O)NC(=O)CNC(=O)[C@H](CCCNC(=N)N)NC(=O)[C@H](C)NC(=O)[C@H](CCC(=O)O)NC(=O)[C@H](CCCNC(=N)N)NC(=O)[C@@H]2CSSC[C@@H]3NC(=O)[C@H](CO)NC(=O)[C@H]([C@@H](C)O)NC(=O)[C@@H]4CCCN4C(=O)[C@H](C)NC(=O)[C@H](Cc4c[nH]c5ccccc45)NC(=O)[C@H](CC(=O)O)NC(=O)CNC(=O)[C@H](CCCNC(=N)N)NC(=O)CNC(=O)[C@H](CCC(N)=O)NC(=O)[C@@H]4CCCN4C(=O)[C@@H](NC(=O)CNC(=O)C(C)F)CSSC[C@H](NC(=O)CNC(=O)[C@H](C)NC(=O)[C@H](CC(C)C)NC(=O)[C@H](CSSC[C@@H](C(=O)NCC(N)=O)NC(=O)[C@H]([C@@H](C)O)NC(=O)[C@H](CCCNC(=N)N)NC(=O)[C@@H]4CCCN4C1=O)NC(=O)[C@H](CC(=O)O)NC(=O)[C@H](CO)NC(=O)[C@H](CC(=O)O)NC(=O)[C@H](CCC(N)=O)NC(=O)[C@H](CO)NC3=O)C(=O)N[C@@H](C(C)C)C(=O)N2 (stereo partly shown) [fluorine-18 labelled]			nude mice U-87 MG xenograft, heart	intravenous, 2.5 h		tissue uptake	0.29 ± 0.05 %ID/g
CCCCCCCCCCc1cn(Cc2cn([C@H]3C[C@H](OC(=O)OC[C@H]4O[C@@H](n5cc(C)c(=O)[nH]c5=O)C[C@@H]4N=[N+]=[N-])[C@@H](COC(=O)OC[C@H]4O[C@@H](n5cc(C)c(=O)[nH]c5=O)C[C@@H]4N=[N+]=[N-])O3)c(=O)[nH]c2=O)nn1	MT4	cell growth or viability				CC50	> 300 µM
C[C@H]1CNCCc2ccc(Cl)cc21			male Sprague-Dawley rat, plasma	subcutaneous, pimavanserin 0.5 + lorcaserin 0.5 mg/kg, pimavanserin 15 min earlier		CL/F	298 ± 21.5 mL/min/kg
CN/C(=N\[N+](=O)[O-])NCc1cnc(Cl)s1	Folsomia candida	survival, OECD 232	LUFA 2.2 soil	28 days		LC50	0.07 mg/kg dry soil
Cc1ncc2n1-c1ccc(Cl)cc1C(c1ccccc1F)=NC2			human CYP3A5*1/*3 and *1/*6, serum	geometric mean, added: ketoconazole 400 mg		terminal half-life	8.72 h
CN[C@@](C)(C[18F])C(=O)O	DU-145 tumour model		host not given, kidney	30 min, tumour-bearing		tracer uptake	12 %ID/g

Excerpt of the above:
Compound	tested on	assay	test system	setting	scale	quantity	result
CSCC[C@@H]1NC(=O)[C@H](CC(=O)O)NC(=O)CNC(=O)[C@H](CCCNC(=N)N)NC(=O)[C@H](C)NC(=O)[C@H](CCC(=O)O)NC(=O)[C@H](CCCNC(=N)N)NC(=O)[C@@H]2CSSC[C@@H]3NC(=O)[C@H](CO)NC(=O)[C@H]([C@@H](C)O)NC(=O)[C@@H]4CCCN4C(=O)[C@H](C)NC(=O)[C@H](Cc4c[nH]c5ccccc45)NC(=O)[C@H](CC(=O)O)NC(=O)CNC(=O)[C@H](CCCNC(=N)N)NC(=O)CNC(=O)[C@H](CCC(N)=O)NC(=O)[C@@H]4CCCN4C(=O)[C@@H](NC(=O)CNC(=O)C(C)F)CSSC[C@H](NC(=O)CNC(=O)[C@H](C)NC(=O)[C@H](CC(C)C)NC(=O)[C@H](CSSC[C@@H](C(=O)NCC(N)=O)NC(=O)[C@H]([C@@H](C)O)NC(=O)[C@H](CCCNC(=N)N)NC(=O)[C@@H]4CCCN4C1=O)NC(=O)[C@H](CC(=O)O)NC(=O)[C@H](CO)NC(=O)[C@H](CC(=O)O)NC(=O)[C@H](CCC(N)=O)NC(=O)[C@H](CO)NC3=O)C(=O)N[C@@H](C(C)C)C(=O)N2 (stereo partly shown) [fluorine-18 labelled]			nude mice U-87 MG xenograft, heart	intravenous, 2.5 h		tissue uptake	0.29 ± 0.05 %ID/g
